{"data": "Published values of several laboratories", "dncV": "dncV (Vibrio cholerae, UniProt Q9KVG7)", "CNR1": "Cannabinoid receptor 1 (CNR1, Homo sapiens, UniProt P21554)", "OPRD1 with Gi1": "Delta-type opioid receptor, with Gi1 (OPRD1, Homo sapiens, UniProt P41143)", "Slc6a3": "Sodium-dependent dopamine transporter (Slc6a3, Rattus norvegicus, UniProt P23977)", "HSP90AA1": "Heat shock protein HSP 90-alpha (HSP90AA1, Homo sapiens, UniProt P07900)", "VHL with elongin B/C": "von Hippel-Lindau disease tumor suppressor, with elongin B/C (VHL, Homo sapiens, UniProt P40337)", "note": "Compare with care: the assays were run in different laboratories. ± gives the spread as reported.", "sequence of UniProt Q9KVG7 (whole entry, looked up)": "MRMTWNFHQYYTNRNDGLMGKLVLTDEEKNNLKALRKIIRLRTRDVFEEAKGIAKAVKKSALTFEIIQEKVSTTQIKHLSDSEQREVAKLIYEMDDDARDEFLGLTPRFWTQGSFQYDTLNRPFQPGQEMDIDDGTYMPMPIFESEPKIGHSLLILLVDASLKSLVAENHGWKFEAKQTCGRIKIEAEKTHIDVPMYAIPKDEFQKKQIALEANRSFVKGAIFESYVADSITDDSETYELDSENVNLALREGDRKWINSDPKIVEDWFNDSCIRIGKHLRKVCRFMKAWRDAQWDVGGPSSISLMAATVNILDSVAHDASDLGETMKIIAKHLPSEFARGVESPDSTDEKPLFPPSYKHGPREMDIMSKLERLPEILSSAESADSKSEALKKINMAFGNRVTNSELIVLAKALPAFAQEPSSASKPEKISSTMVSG", "sequence of UniProt P21554 (whole entry, looked up)": "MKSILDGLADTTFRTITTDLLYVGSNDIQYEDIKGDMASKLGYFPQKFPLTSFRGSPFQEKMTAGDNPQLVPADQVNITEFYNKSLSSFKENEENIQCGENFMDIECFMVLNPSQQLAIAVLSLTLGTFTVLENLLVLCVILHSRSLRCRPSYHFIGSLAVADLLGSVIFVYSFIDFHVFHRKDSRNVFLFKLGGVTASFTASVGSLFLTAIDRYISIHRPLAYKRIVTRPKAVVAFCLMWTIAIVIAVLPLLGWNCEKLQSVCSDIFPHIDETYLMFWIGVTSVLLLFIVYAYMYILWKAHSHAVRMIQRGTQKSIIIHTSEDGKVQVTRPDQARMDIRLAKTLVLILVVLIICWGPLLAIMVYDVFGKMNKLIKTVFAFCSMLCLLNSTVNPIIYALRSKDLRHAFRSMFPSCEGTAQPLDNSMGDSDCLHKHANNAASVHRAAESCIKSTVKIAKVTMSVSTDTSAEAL", "sequence of UniProt P41143 (whole entry, looked up)": "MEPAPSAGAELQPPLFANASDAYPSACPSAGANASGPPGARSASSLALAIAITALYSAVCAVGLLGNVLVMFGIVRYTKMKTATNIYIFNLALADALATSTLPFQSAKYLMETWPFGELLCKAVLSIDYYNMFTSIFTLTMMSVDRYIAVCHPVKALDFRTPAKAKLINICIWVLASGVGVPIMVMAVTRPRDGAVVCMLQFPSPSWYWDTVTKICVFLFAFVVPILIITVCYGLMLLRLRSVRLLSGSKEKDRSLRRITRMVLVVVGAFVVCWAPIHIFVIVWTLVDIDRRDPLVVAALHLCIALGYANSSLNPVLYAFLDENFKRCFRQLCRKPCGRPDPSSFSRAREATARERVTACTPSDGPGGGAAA", "sequence of UniProt P40337 (whole entry, looked up)": "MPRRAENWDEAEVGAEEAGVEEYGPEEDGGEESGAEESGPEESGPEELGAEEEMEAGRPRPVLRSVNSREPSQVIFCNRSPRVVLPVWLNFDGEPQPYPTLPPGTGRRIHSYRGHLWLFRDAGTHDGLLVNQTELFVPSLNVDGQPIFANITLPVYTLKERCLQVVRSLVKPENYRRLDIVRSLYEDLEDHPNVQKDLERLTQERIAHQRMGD", "sequence of UniProt P23977 (whole entry, looked up)": "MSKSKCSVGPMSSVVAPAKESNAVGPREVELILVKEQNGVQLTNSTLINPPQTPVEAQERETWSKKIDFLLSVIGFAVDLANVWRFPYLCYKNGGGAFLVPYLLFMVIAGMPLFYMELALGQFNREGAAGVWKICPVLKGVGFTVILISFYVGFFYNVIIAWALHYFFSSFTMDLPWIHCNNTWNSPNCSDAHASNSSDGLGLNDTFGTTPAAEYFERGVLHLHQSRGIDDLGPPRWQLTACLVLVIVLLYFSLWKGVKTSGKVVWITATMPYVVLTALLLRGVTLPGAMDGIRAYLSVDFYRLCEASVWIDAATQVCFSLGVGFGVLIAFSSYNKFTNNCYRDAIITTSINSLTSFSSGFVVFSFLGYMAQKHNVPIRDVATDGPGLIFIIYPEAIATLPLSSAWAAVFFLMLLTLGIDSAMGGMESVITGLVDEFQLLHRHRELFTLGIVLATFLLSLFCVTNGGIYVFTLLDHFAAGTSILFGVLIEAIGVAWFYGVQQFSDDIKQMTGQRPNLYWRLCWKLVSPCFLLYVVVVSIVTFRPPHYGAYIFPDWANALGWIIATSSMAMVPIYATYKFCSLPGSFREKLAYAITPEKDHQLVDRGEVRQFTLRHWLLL", "sequence of UniProt P34972 (whole entry, unmodified, looked up)": "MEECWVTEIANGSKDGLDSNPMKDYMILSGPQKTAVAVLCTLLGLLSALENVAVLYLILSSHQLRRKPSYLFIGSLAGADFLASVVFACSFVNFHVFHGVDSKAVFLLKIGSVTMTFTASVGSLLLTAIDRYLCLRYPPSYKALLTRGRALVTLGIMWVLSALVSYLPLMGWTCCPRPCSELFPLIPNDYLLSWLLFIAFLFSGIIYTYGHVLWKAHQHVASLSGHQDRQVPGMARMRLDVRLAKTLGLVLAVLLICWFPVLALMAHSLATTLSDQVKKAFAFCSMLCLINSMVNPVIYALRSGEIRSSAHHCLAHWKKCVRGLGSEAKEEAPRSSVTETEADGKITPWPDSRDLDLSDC", "sequence of UniProt P15682 (whole entry, looked up)": "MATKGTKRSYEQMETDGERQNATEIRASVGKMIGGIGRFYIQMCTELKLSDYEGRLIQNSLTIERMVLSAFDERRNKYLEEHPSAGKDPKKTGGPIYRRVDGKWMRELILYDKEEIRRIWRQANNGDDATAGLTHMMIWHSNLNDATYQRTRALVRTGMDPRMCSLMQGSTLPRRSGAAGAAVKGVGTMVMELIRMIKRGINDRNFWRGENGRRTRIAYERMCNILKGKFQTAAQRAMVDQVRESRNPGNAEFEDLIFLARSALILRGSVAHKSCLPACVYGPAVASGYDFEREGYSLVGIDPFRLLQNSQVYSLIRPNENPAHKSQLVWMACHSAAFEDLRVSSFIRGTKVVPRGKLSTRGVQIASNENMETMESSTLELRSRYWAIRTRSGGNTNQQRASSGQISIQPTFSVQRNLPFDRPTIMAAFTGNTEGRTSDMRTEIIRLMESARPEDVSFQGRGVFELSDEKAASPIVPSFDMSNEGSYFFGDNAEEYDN", "sequence of UniProt P14416 (whole entry, looked up)": "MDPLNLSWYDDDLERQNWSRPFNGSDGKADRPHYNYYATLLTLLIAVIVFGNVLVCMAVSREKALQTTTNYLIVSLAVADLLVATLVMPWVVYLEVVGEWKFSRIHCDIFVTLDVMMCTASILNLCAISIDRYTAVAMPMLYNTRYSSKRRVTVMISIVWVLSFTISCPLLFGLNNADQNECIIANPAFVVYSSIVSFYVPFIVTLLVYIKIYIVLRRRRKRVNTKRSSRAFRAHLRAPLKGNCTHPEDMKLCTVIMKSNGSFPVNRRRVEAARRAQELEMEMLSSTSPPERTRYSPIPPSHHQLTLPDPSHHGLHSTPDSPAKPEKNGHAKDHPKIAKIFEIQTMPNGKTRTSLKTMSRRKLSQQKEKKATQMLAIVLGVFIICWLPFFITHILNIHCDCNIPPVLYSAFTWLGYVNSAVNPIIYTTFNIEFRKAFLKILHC", "sequence of UniProt Q05209 (whole entry, looked up)": "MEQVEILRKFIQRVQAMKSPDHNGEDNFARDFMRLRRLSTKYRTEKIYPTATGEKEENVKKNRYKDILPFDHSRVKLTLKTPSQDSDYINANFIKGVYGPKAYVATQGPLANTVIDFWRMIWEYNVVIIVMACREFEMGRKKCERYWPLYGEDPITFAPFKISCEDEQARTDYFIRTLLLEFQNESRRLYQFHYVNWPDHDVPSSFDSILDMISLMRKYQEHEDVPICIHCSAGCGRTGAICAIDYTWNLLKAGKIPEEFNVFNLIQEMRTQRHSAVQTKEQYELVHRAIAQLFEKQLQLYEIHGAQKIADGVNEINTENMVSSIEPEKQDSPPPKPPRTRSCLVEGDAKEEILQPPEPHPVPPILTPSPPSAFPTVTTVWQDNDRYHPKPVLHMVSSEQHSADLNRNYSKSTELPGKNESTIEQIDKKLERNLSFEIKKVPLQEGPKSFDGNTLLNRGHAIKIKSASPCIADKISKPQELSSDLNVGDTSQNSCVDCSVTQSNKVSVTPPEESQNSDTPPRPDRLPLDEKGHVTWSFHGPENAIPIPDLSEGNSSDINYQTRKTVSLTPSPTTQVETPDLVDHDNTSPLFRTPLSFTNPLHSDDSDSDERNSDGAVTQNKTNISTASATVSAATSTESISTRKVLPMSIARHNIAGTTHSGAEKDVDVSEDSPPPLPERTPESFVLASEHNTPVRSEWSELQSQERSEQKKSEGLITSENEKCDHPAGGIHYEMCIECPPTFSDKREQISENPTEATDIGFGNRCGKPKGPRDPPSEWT", "sequence of UniProt P18508 (whole entry, looked up)": "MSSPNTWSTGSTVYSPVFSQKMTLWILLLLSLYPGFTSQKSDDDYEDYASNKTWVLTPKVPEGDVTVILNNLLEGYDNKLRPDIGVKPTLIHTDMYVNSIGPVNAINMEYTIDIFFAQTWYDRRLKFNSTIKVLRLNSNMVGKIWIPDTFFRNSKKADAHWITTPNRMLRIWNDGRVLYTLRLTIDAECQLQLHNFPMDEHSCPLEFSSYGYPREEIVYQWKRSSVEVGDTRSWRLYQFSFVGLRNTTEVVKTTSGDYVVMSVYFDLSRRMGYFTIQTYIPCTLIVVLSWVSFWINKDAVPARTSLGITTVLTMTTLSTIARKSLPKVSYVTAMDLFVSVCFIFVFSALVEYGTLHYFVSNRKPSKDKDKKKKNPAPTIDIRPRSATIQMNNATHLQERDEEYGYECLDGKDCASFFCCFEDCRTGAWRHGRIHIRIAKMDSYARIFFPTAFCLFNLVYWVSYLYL"}
{"SMILES": "CC(=O)N[C@@H](CCC(=O)O)C(=O)N[C@@H](CCC(N)=O)C(=O)N[C@H](C(=O)N[C@@H](CCC(=O)O)C(=O)N[C@@H](CC(C)C)C(=O)N[C@@H](CCC(=O)O)C(=O)N[C@@H](Cc1ccccc1)C(=O)N[C@@H](CC(=O)O)C(=O)O)C(C)C", "target": "Beta sliding clamp (Escherichia coli, UniProt P0A988)", "setting": "50 µM, target 5 µM", "measurement": "fraction of target bound", "result": "~93%"}
{"SMILES": "Nc1nc2c([C@@H]3O[C@H](COP(=O)(O)OP(=O)(O)OP(=O)(O)O)[C@@H](O)[C@H]3O)snc2c(=O)[nH]1", "target": "dncV", "test": "substrate, HPLC", "setting": "500 µM, 37 °C", "measurement": "cyclization rate constant k2", "result": "0.0034 ± 0.0002 s⁻¹"}
{"SMILES": "CCCCCn1cc(C(=O)c2cccc3c2CC(C)(C)C3)c2ccccc21", "target": "CNR1", "test": "β-arrestin 2 recruitment, agonist, BRET", "how to read": "relative to: CB1 minus CB2", "measurement": "Emax difference", "result": "~70%"}
{"SMILES": "NC1=NN=Cc2ccccc2[O][V](=[O])[O]1.c1cnc2c(c1)ccc1cccnc12", "target": "Tyrosine-protein phosphatase non-receptor type 12 (PTPN12, Homo sapiens, UniProt Q05209)", "how to read": "relative to: IC50 PTP–PEST over IC50 YopH", "measurement": "selectivity ratio", "result": 42.8}
{"SMILES": "O=C1CC(=O)N(c2ccccc2)c2cc(Cl)ccc2N1", "target": "Gabrg2/Gabra3, with β3 subunit (Rattus norvegicus, UniProt P18508+P20236)", "test": "positive allosteric modulator, whole-cell patch clamp", "test system": "HEK293", "setting": "α3β3γ2 subunits, with: GABA at EC10", "measurement": "Emax", "result": "245 ± 29%"}
{"SMILES": "N=C(N)NCCCN1CC[C@]23c4c5ccc(O)c4O[C@H]2c2[nH]c4ccccc4c2C[C@@]3(O)[C@H]1C5", "target": "OPRD1 with Gi1", "test system": "human cells", "measurement": "Emax", "result": "84 ± 2%"}
{"SMILES": "CNC(C)C(=O)c1cccc([N+](=O)[O-])c1 (centres unmarked)", "target": "Slc6a3", "test": "dopamine release, releaser", "test system": "rat brain synaptosomes", "setting": "with: [3H]dopamine", "how to read": "relative to: compound over methamphetamine", "measurement": "potency ratio", "result": "25 fold"}
{"SMILES": "COc1ccc2cc(-c3c(C(=O)O)cccc3C(=O)O)ccc2c1", "target": "Nucleoprotein (Influenza A virus, UniProt P15682)", "setting": "NP–RNA complex", "measurement": "particle size", "result": "15 to 17 nm"}
{"SMILES": "CCC(C)n1c(C(=O)Nc2cnc(C(=O)NC)n(CC(C)C)c2=O)ncc(NC(=O)c2ncc(NC(=O)c3ccccc3)c(=O)n2CCc2ccc(O)cc2)c1=O (centres unmarked)", "target": "HSP90AA1", "setting": "50 µM", "measurement": "inhibition", "result": "31.3%"}
{"SMILES": "CCCCCCCCN1CCC23c4c5ccc(O)c4OC2c2nc4ccccc4cc2CC3(O)C1C5 (centres unmarked)", "target": "OPRD1 with Gi1", "test system": "human cells", "measurement": "Emax", "result": "55 ± 2%"}
{"SMILES": "CCCCCc1cc(O)c2c(c1)OC(C)(C)C1=C2[C@@H](O)[C@@](C)(O)CC1", "target": "Sucrase-isomaltase, intestinal (Si, Rattus norvegicus, UniProt P23739)", "test": "inhibitor", "measurement": "Ki'", "result": "305 µM"}
{"SMILES": "CCC(C)n1c(C(=O)Nc2cnc(C(=O)NC)n(CC(C)C)c2=O)ncc(NC(=O)c2ncc(NC(=O)c3ccccc3)c(=O)[nH]2)c1=O (centres unmarked)", "target": "HSP90AA1", "setting": "50 µM", "measurement": "inhibition", "result": "14.7%"}
{"SMILES": "CCOCC1CC(F)(F)CN1C1CCN(C(=O)c2ccc3cc[nH]c3c2)CC1 (centres unmarked)", "target": "VHL with elongin B/C", "test": "binding, TR-FRET", "setting": "10 µM, 90 min, with: BODIPY FL VH032", "measurement": "inhibition", "result": "36.4%"}
{"SMILES": "COc1ccc2cc(C(CC(=O)O)CC(=O)O)ccc2c1", "target": "Nucleoprotein, monomeric (Influenza A virus, UniProt P15682)", "setting": "1 µM", "measurement": "inhibition", "result": "16%"}
{"SMILES": "N=C(N)NCCCN1CC[C@]23c4c5ccc(O)c4O[C@H]2c2nc4ccccc4cc2C[C@@]3(O)[C@H]1C5", "target": "Delta-type opioid receptor, with β-arrestin2 (OPRD1, Homo sapiens, UniProt P41143)", "test system": "human cells", "measurement": "Emax", "result": "91 ± 8%"}
{"SMILES": "CCCCCn1cc(C(=O)c2ccc3ccccc3c2)c2ccccc21", "target": "Cannabinoid receptor 2 (CNR2, Homo sapiens, UniProt P34972, V261L)", "test": "Gαi1 engagement, agonist, BRET", "how to read": "relative to: reference agonist at wild-type CB2", "measurement": "Emax", "result": "64.5 ± 9.7%"}
{"SMILES": "COc1ccccc1N1C(=O)/C(=C/c2cccn2-c2ccc(O)cc2)C(=O)NC1=S", "target": "Nuclear receptor ROR-gamma (RORC, Homo sapiens, UniProt P51449)", "test": "cell-based", "setting": "concentration not given", "measurement": "activity class", "result": "active"}
{"SMILES": "Cc1ccccc1N1C(=O)/C(=C/c2ccc(OCc3cccc(C(=O)O)c3)cc2)C(=O)NC1=S", "target": "Tyrosine-protein phosphatase non-receptor type 2 (PTPN2, Homo sapiens, UniProt P17706)", "test": "phosphatase activity, inhibitor", "how to read": "relative to: LYP IC50 over PTPN2 IC50 inverse", "measurement": "selectivity ratio", "result": "3 fold"}
{"SMILES": "CCC(C)n1c(C(=O)Nc2cnc(C(=O)NC)n(CC(C)C)c2=O)ncc(NC(=O)c2ncc(NC(=O)c3ccccc3)c(=O)n2C(C)C)c1=O (centres unmarked)", "target": "HSP90AA1", "setting": "50 µM", "measurement": "inhibition", "result": "3.27%"}
{"SMILES": "NCCCCCCCCN1CCC23c4c5ccc(O)c4OC2c2nc4ccccc4cc2CC3(O)C1C5 (centres unmarked)", "target": "Delta-type opioid receptor, with β-arrestin1 (OPRD1, Homo sapiens, UniProt P41143)", "test system": "human cells", "measurement": "Emax", "result": "27 ± 2%"}
{"SMILES": "CCCCCn1c2ccccc2c2cc(C(=O)c3cccc4ccccc34)ccc21", "target": "CNR1", "test": "cAMP inhibition, agonist, BRET", "test system": "HEK293 expressing CNR1", "setting": "with: forskolin", "how to read": "relative to: forskolin alone", "measurement": "Emax", "result": "48.5%"}
{"SMILES": "N=C(N)NCCCCCCCN1CC[C@]23c4c5ccc(O)c4O[C@H]2c2[nH]c4ccccc4c2C[C@@]3(O)[C@H]1C5", "target": "OPRD1 with Gi1", "test system": "human cells", "measurement": "Emax", "result": "40 ± 2%"}
{"SMILES": "CCCCCn1cc(C(=O)c2cccc3ccccc23)c2ccccc21", "target": "Cannabinoid receptor 2 (CNR2, Homo sapiens, UniProt P34972, L182I)", "test": "Gαi1 engagement, agonist, BRET", "how to read": "relative to: reference agonist at wild-type CB2", "measurement": "Emax", "result": "15.1 ± 3.6%"}
{"SMILES": "CCOC(=O)C1C(OC(c2ccc(Cl)cc2)c2ccc(Cl)cc2)CC2CCC1N2C (single isomer, unassigned)", "target": "D(2) dopamine receptor (DRD2, Homo sapiens, UniProt P14416)", "test": "binding, radioligand displacement", "setting": "inactive if below 75% at 10000 nM", "measurement": "Ki", "result": "inactive"}
{"SMILES": "C[N+](C)(C)CCOC(N)=O", "target": "CHRNA7/glc-2 (Homo sapiens, UniProt P36544+Q17328)", "test": "binding", "setting": "24 or 48 h, 37 °C", "measurement": "Hill coefficient", "result": "1.09 ± 0.08"}
{"SMILES": "Nc1nc2c([C@@H]3O[C@@H]4COP(=O)(O)O[C@H]5[C@@H](O)[C@H](c6scc7c(=O)[nH]c(N)nc67)O[C@@H]5COP(=O)(O)O[C@H]4[C@H]3O)scc2c(=O)[nH]1", "target": "dncV", "test": "substrate, HPLC", "setting": "500 µM, 37 °C", "measurement": "intermediate degradation rate k3", "result": "2.91e-05 ± 1e-07 s⁻¹"}
{"SMILES": "CCC(=O)N1CCc2cc(-c3ccc(C(=O)NCc4ccco4)cc3)ccc21", "target": "VHL with elongin B/C", "test": "binding, TR-FRET", "setting": "10 µM, 90 min, with: BODIPY FL VH032", "measurement": "inhibition", "result": "45.7%"}
{"SMILES": "CCCCCn1cc(C(=O)c2ccc3c(c2)CC(C)(C)C3)c2ccccc21", "target": "CNR1", "test": "β-arrestin recruitment, agonist, BRET", "test system": "HEK-293T", "measurement": "Emax", "result": "53.7%"}
{"SMILES": "CNC(C)C(=O)c1cccc(OC(F)(F)F)c1 (centres unmarked)", "target": "Slc6a3", "test": "dopamine release, releaser", "test system": "rat brain synaptosomes", "setting": "with: [3H]dopamine", "how to read": "relative to: compound over methamphetamine", "measurement": "potency ratio", "result": "15 fold"}
{"SMILES": "CC(C)C[C@@H](CN)CC(=O)O", "target": "Voltage-dependent calcium channel subunit alpha-2/delta-1 (Rattus norvegicus, UniProt P54290)", "test": "[3H]gabapentin binding", "test system": "rat cerebral cortex membranes", "setting": "1 µM, with: [3H]gabapentin 20 nM", "measurement": "inhibition", "result": "19%"}
{"SMILES": "CCC(C)n1c(C(=O)Nc2cnc(C(=O)NC)n(CC(C)C)c2=O)ncc(NC(=O)c2ncc(NC(=O)c3ccccc3)c(=O)n2Cc2ccc(O)cc2)c1=O (centres unmarked)", "target": "HSP90AA1", "setting": "50 µM", "measurement": "inhibition", "result": "24.4%"}
{"SMILES": "Nc1nc2c([C@@H]3O[C@@H]4COP(=O)(O)O[C@H]5[C@@H](O)[C@H](c6snc7c(=O)[nH]c(N)nc67)O[C@@H]5COP(=O)(O)O[C@H]4[C@H]3O)snc2c(=O)[nH]1", "target": "dncV", "test": "substrate, HPLC", "measurement": "rate constant k1", "result": "1.26 ± 0.07 M⁻¹ s⁻¹"}
